Assay results pooled from the literature.
Numbered parts are unrelated; each lists some results of a single study. Values joined by “and” are separate records of one study, mostly repeats; a detail may differ.
Chain of UniProt P48729 (whole entry, looked up): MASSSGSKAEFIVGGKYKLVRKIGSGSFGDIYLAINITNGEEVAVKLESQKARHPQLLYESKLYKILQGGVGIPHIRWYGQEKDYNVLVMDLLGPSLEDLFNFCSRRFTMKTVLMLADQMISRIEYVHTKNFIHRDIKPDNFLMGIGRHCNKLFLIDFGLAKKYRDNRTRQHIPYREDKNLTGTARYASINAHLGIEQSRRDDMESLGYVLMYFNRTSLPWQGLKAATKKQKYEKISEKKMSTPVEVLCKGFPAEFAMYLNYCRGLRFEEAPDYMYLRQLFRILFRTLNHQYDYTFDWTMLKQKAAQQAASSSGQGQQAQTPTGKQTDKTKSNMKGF
Chain of UniProt P51957 (whole entry, looked up): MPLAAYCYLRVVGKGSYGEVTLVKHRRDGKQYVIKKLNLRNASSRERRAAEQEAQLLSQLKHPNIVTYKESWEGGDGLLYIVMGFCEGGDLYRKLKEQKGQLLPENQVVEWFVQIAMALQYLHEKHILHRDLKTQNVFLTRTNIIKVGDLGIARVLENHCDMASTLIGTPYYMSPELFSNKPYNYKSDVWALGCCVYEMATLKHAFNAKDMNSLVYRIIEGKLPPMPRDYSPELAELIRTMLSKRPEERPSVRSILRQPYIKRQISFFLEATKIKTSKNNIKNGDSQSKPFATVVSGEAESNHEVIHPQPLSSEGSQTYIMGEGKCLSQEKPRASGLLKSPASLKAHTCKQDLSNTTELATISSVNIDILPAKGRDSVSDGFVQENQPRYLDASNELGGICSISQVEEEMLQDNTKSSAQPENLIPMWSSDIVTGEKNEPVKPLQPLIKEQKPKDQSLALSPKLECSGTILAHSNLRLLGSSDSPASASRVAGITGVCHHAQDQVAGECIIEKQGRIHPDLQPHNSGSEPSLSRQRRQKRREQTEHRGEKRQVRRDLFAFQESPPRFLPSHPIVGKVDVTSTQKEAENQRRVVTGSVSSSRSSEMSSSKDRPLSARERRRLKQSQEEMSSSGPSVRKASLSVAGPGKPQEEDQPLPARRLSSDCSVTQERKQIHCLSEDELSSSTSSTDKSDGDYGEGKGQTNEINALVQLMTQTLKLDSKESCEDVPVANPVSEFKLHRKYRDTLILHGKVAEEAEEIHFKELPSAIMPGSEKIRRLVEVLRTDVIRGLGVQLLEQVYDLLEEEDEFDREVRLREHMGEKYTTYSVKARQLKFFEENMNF
Chain of UniProt P07948 (whole entry, looked up): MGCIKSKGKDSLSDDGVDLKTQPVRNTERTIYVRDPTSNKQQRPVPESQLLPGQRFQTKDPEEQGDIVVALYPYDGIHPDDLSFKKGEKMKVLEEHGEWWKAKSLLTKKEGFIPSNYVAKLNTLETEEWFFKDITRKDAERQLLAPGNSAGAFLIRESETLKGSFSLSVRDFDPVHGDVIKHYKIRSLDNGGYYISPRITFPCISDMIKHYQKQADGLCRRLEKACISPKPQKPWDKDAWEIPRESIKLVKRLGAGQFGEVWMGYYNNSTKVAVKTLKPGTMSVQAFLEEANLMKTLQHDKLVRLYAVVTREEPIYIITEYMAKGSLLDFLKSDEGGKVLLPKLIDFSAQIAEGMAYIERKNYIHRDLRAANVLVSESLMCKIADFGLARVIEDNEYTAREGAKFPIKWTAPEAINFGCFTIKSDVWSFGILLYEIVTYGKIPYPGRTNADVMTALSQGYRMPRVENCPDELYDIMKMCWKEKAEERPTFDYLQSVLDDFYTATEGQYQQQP
Chain of UniProt Q06187 (whole entry, looked up): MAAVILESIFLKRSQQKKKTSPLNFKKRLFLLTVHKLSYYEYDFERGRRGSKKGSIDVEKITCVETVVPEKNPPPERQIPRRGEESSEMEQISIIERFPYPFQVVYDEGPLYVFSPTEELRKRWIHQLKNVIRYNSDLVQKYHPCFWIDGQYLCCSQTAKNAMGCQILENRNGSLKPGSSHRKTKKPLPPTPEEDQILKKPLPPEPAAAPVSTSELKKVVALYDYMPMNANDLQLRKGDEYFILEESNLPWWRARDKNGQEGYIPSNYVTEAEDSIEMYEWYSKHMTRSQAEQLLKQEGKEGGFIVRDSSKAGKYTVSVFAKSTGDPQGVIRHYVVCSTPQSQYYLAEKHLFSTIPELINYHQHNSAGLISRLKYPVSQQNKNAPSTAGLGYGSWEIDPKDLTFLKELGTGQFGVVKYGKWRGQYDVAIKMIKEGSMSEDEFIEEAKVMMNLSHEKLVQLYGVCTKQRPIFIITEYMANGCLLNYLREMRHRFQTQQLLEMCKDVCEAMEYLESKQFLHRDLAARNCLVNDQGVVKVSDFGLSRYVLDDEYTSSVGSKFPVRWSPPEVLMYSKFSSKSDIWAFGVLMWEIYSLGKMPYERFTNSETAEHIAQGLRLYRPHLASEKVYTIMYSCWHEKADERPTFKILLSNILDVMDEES

Set 1
Cell line: mouse MPNST tumor cells
Method: high-content nuclear imaging
Item: cell number
Concentration: 10 µM
Time: 12 h
Notes: mean of 2 replicates
Reference: plate mean
Reading: higher = more cells
SMILES	nuclei count
CCOc1cc(N2CCC(O)CC2)ccc1Nc1ncc2c(n1)N(C)c1ccccc1C(=O)N2C	-2.12 z-score
CCO[C@@H](Cc1ccc(OCCc2ccc(OS(C)(=O)=O)cc2)cc1)C(=O)O	0.953 z-score
O=C(O)c1ccccc1C(=O)Nc1ccc(S(=O)(=O)Nc2nccs2)cc1	0.494 z-score
O=S(=O)(NCC1CC1)c1ccc(Nc2nccc(N3CCCc4cc(O)ccc43)n2)cc1	-2.83 z-score
COc1cc2nc(N3CCN(C(=O)C4COc5ccccc5O4)CC3)nc(N)c2cc1OC (stereo not drawn)	-0.79 z-score and -4.05 z-score
COCCOCOc1cc2ccc(-c3ccc(C(=O)O)cc3)cc2cc1C12CC3CC(CC(C3)C1)C2	0.306 z-score
Oc1c(Cl)cc(Cl)c2cccnc12	0.311 z-score
COc1ccc2c3c1O[C@H]1C[C@@H](O)C=C[C@@]31CCN(C)C2	-0.151 z-score and 0.724 z-score
OC(CCN1CCCCC1)(c1ccccc1)C1CCCCC1 (stereo not drawn)	2.15 z-score and 2.8 z-score
O=C(NCc1ccc2c(c1)OCO2)c1c(Cl)cccc1Cl	0.45 z-score
c1cc(-c2sc(-c3ccncc3)c(-c3ccncc3)c2-c2ccncc2)ccn1	-1.65 z-score
Cc1cccc(N2CCN(C(=O)c3cc(S(=O)(=O)N(C)C)ccc3N3CCCC3)CC2)c1C	3.45 z-score
C#C[C@]1(O)CC[C@H]2[C@@H]3[C@H](C)CC4=C(CCC(=O)C4)[C@H]3CC[C@@]21C	4.6 z-score
O=C1CC[C@@H](C(=O)N2CSC[C@H]2C(=O)O)N1	0.488 z-score
Nc1cc(F)ccc1NC(=O)/C=C/c1cnn(C/C=C/c2ccccc2)c1	-0.902 z-score
CC(C)NCC(O)c1cc(O)cc(O)c1 (stereo not drawn)	1.51 z-score
Cc1ccc(-c2cnccc2-c2cnc(Nc3ccc(O)cc3)s2)c(Cl)c1	-4.48 z-score
CC(C)CNc1nc(-c2cccc3ncccc23)cn2c(-c3ccc(C(=O)NC4CC4)cc3)cnc12	-3.86 z-score

Set 2
SMILES: CNCc1ccccc1-c1csc([C@@H](C)Nc2nc(C)nc3cc(OC)c(OC)cc23)c1
Observed: cell-free assay
Method: competition with immobilised ligand
Concentration: 1 µM
target	remaining binding [%]
Casein kinase I isoform gamma-1 (CSNK1G1, Homo sapiens, UniProt Q9HCP0)	88
Serine/threonine-protein kinase Nek6 (NEK6, Homo sapiens, UniProt Q9HC98)	96
Cyclin-dependent kinase 13 (CDK13, Homo sapiens, UniProt Q14004)	89
Mitogen-activated protein kinase 8 (MAPK8, Homo sapiens, UniProt P45983)	66
Tyrosine-protein kinase ABL1, phosphorylated (ABL1, Homo sapiens, UniProt P00519, M351T)	74
Serine/threonine-protein kinase 35 (STK35, Homo sapiens, UniProt Q8TDR2)	91
Tyrosine-protein kinase Lck (LCK, Homo sapiens, UniProt P06239)	100
Interferon-induced, double-stranded RNA-activated protein kinase (EIF2AK2, Homo sapiens, UniProt P19525)	90
Dual specificity mitogen-activated protein kinase kinase 7 (MAP2K7, Homo sapiens, UniProt O14733)	79
ALK tyrosine kinase receptor (ALK, Homo sapiens, UniProt Q9UM73, C1156Y)	100
Casein kinase I isoform alpha (CSNK1A1, Homo sapiens, UniProt P48729)	73
Serine/threonine-protein kinase PAK 4 (PAK4, Homo sapiens, UniProt O96013)	97
Proto-oncogene tyrosine-protein kinase receptor Ret (RET, Homo sapiens, UniProt P07949, M918T)	70
Serine/threonine-protein kinase pim-3 (PIM3, Homo sapiens, UniProt Q86V86)	83
Mitogen-activated protein kinase kinase kinase 13 (MAP3K13, Homo sapiens, UniProt O43283)	80
Mitogen-activated protein kinase kinase kinase 6 (MAP3K6, Homo sapiens, UniProt O95382)	99
Testis-specific serine/threonine-protein kinase 1 (TSSK1B, Homo sapiens, UniProt Q9BXA7)	59
Ankyrin repeat and protein kinase domain-containing protein 1 (ANKK1, Homo sapiens, UniProt Q8NFD2)	76
Atypical kinase COQ8A, mitochondrial (COQ8A, Homo sapiens, UniProt Q8NI60)	92
Serine/threonine-protein kinase Nek4 (NEK4, Homo sapiens, UniProt P51957)	83

Set 3
Structure (SMILES): CC(C)N(CCC(=O)c1ccc2ccccc2c1)Cc1ccccc1
Observed: enzyme activity
Action: inhibitor
Concentration: 0.5 µM
Reference: control
target	remaining activity
Mast/stem cell growth factor receptor Kit (KIT, Homo sapiens, UniProt P10721)	86.5%
Mitogen-activated protein kinase 12 (MAPK12, Homo sapiens, UniProt P53778)	96.2%
Cyclin-dependent kinase 9, with cyclin T1 (CDK9, Homo sapiens, UniProt P50750)	96.4%
Dual specificity mitogen-activated protein kinase kinase 6 (MAP2K6, Homo sapiens, UniProt P52564)	93.2%
Leucine-rich repeat serine/threonine-protein kinase 2 (LRRK2, Homo sapiens, UniProt Q5S007)	98.2%
Serine/threonine-protein kinase Chk1 (CHEK1, Homo sapiens, UniProt O14757)	106%
RAC-gamma serine/threonine-protein kinase (AKT3, Homo sapiens, UniProt Q9Y243)	95.8%
Interleukin-1 receptor-associated kinase 4 (IRAK4, Homo sapiens, UniProt Q9NWZ3)	103%
Ephrin type-A receptor 5 (EPHA5, Homo sapiens, UniProt P54756)	118%
Mitogen-activated protein kinase kinase kinase 10 (MAP3K10, Homo sapiens, UniProt Q02779)	92.6%
Casein kinase II subunit alpha (CSNK2A1, Homo sapiens, UniProt P68400)	98.1%
Serine/threonine-protein kinase Nek4 (NEK4, Homo sapiens, UniProt P51957)	95.7%
Tyrosine-protein kinase BTK (BTK, Homo sapiens, UniProt Q06187)	87.5%
cGMP-dependent protein kinase 1 (PRKG1, Homo sapiens, UniProt Q13976)	101%
Protein kinase C iota type (PRKCI, Homo sapiens, UniProt P41743)	97.1%
Casein kinase I isoform alpha (CSNK1A1, Homo sapiens, UniProt P48729)	88.4%
MAP kinase-interacting serine/threonine-protein kinase 2 (MKNK2, Homo sapiens, UniProt Q9HBH9)	100%
Mitogen-activated protein kinase 13 (MAPK13, Homo sapiens, UniProt O15264)	96.2%
Mitogen-activated protein kinase kinase kinase kinase 2 (MAP4K2, Homo sapiens, UniProt Q12851)	98.3%
Protein kinase C delta type (PRKCD, Homo sapiens, UniProt Q05655)	94%
Serine/threonine-protein kinase WNK2 (WNK2, Homo sapiens, UniProt Q9Y3S1)	107%
Serine/threonine-protein kinase PLK2 (PLK2, Homo sapiens, UniProt Q9NYY3)	97%
Serine/threonine-protein kinase 38 (STK38, Homo sapiens, UniProt Q15208)	100%
Tyrosine-protein kinase Lyn (LYN, Homo sapiens, UniProt P07948)	98.8%

Set 4
Target: DNA polymerase theta, ATPase domain (POLQ, Homo sapiens, UniProt O75417)
Chain of UniProt O75417 (whole entry, unmodified, looked up): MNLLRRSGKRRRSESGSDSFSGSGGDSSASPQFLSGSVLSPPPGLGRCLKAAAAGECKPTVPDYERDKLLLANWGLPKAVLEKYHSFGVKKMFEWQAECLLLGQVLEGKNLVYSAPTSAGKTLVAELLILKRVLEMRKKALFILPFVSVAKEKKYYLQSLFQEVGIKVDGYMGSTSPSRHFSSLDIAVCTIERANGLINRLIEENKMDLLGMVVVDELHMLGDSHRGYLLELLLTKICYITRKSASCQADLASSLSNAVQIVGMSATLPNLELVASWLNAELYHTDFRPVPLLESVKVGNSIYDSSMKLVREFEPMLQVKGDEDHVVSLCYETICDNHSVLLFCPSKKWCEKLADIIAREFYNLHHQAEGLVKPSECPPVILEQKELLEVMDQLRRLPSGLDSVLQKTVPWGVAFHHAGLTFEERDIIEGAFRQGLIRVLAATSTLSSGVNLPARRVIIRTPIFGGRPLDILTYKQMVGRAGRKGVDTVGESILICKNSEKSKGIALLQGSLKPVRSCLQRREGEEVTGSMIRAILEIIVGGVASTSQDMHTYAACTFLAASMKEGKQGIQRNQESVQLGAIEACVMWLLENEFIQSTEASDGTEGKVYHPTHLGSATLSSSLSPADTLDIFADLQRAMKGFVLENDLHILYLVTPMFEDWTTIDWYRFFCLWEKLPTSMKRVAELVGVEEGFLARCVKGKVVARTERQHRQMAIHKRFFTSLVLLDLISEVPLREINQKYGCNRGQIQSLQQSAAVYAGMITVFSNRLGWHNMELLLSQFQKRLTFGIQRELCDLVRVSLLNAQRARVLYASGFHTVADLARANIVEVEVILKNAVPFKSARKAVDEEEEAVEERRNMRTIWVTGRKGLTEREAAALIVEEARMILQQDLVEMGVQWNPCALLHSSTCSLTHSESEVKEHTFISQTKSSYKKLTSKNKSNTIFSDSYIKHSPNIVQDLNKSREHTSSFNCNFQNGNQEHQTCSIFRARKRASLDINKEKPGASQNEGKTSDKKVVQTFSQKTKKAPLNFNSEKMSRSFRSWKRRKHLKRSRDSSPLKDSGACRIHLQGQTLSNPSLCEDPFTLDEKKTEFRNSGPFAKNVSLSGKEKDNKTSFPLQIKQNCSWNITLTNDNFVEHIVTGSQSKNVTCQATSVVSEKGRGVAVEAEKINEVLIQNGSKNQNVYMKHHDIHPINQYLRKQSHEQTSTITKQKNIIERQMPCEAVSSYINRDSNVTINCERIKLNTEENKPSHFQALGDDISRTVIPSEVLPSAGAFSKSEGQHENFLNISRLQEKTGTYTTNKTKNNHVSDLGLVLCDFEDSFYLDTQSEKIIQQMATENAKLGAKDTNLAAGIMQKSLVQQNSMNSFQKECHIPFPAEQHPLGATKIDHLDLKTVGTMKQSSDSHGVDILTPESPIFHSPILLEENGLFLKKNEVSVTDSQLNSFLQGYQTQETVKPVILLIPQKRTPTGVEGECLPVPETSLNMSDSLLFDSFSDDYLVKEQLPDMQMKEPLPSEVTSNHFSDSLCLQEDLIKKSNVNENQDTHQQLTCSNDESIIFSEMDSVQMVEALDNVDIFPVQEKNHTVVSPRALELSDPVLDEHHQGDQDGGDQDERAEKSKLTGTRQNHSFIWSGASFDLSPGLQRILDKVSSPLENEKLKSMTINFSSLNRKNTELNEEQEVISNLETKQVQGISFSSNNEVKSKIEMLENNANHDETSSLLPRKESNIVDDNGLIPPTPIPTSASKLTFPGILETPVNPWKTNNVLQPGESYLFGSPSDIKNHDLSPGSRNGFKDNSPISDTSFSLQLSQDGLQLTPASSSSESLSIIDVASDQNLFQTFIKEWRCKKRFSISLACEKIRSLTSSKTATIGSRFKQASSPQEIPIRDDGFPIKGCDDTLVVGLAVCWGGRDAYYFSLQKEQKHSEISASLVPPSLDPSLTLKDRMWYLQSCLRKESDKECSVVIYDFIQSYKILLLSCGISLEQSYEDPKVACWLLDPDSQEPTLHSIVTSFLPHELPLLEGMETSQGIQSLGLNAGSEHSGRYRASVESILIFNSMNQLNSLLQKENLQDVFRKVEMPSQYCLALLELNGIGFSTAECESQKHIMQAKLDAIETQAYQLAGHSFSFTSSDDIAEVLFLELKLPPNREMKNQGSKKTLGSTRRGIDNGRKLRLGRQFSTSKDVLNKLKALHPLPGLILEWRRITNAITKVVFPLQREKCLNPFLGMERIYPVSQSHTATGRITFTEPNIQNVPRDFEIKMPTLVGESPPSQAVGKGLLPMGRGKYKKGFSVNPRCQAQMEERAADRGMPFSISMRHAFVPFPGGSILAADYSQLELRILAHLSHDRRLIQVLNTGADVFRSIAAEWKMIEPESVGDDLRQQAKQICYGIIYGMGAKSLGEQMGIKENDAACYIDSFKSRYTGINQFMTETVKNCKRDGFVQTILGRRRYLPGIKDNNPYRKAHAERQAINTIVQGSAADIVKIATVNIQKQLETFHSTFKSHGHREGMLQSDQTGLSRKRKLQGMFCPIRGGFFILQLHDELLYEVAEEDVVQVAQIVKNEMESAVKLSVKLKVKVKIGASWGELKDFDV
Observed: enzyme activity
Action: inhibitor
Concentration: 77 µM
Reference: untreated
Compound	remaining activity
CCS(=O)(=O)CCn1c([N+](=O)[O-])cnc1C	102% and 77.9%
CC1CS(=O)(=O)CCN1/N=C/c1ccc([N+](=O)[O-])o1 (stereo not drawn)	94.3%
Oc1ccc(Nc2nc(-c3ccc(Cl)cc3)cs2)cc1	103%
O=c1c(O)c(-c2ccc(O)c(O)c2)oc2cc(O)c(O)c(O)c12	97.3%
C[C@@H]1COC(Nc2ccc3ncnc(Nc4ccc(OCc5nccs5)c(Cl)c4)c3c2)=N1	96.5%
Cc1cncc2cccc(S(=O)(=O)N3CCCN(C(=O)CN)C[C@@H]3C)c12	99.8%
CCCc1nc2c(C)cc(-c3nc4ccccc4n3C)cc2n1Cc1ccc(-c2ccccc2C(=O)O)cc1	90.5%
O=C(O)C1=CC(=C(c2ccc(O)c(C(=O)O)c2)c2ccc(O)c(C(=O)O)c2)C=CC1=O	5.88%
CS(=O)(=O)Nc1ccc([N+](=O)[O-])cc1Oc1ccccc1	97.9%
Cc1c(NC(=O)c2cccnc2)c(=O)n(-c2ccccc2)n1C	101%
COc1cc(F)c(F)c(Nc2ccc(I)cc2F)c1NS(=O)(=O)C1(C[C@H](O)CO)CC1	93.7%
O=C(O)C1CCCN(CCC=C(c2ccccc2)c2ccccc2)C1 (stereo not drawn)	96.3%
C=C1/C(=C\C=C2/CCC[C@]3(C)[C@@H]([C@H](C)/C=C/[C@H](C)C(C)C)CC[C@@H]23)C[C@@H](O)C[C@@H]1O	102%
CC1(C)O[C@@H]2C[C@H]3[C@@H]4CCC5=CC(=O)CC[C@]5(C)[C@@]4(F)[C@@H](O)C[C@]3(C)[C@]2(C(=O)CCl)O1	85.9% and 110%
CC(C)(C(=O)NCC(F)(F)C(F)(F)F)C(=O)N[C@@H]1C(=O)Nc2ccccc2-c2ccccc21	101%
C[C@@H](c1ncncc1F)[C@](O)(Cn1cncn1)c1ccc(F)cc1F	98.1% and 96.7%
C[C@@H](O)[C@H]1C(=O)N2C(C(=O)O)=C(SCCNC=N)C[C@H]12	98.9%
CN1c2cc(O)c(N=NC(N)=O)cc2CC1S(=O)(=O)O (stereo not drawn)	101%
O=C(O)c1ccc2c(c1)nc(Nc1cccc(Cl)c1)c1ccncc12	95.3%
